Values quoted from earlier work as cited in several papers.
Numbered parts are unrelated; values within a part may stem from several laboratories.

Set 1 — organism: Bacillus subtilis; molecule type: peptide
The MIC of `MCFCFKAGPKICRGLQRKKKKKFKYQTSFTKTGFGTLHTKPKSPAR` is reported as 0.6 µM.
The MIC of `MGIGKFQKMRFIGAIRASKGVAKGLLRIAAIRTGRRALTT` is reported as 0.5 µM.
With `MMKIRNTLRSRKEAVRRIFSLRRRSVF` the MIC was 0.4 µM.
The MIC of `MEAFKKPRPLFLVKLLTRFLEARAGLGSYRIEFIFKKFGVVKFSSLLR` is reported as 0.8 µM.

Further values, each from its own experiment
B1: CCL1; sequence looked up; chain KSMQVPFSRCCFSFAEQEIPLRAILCYRNTSSICSNEGLIFKLKRGKEACALDTVGWVQRHRKMLRHCPSKRK
`LAGSASAHAFR` — result for “retention coefficient S”: 21.3 (isocratic RP-HPLC, C18 column; peptide, water/acetonitrile, 0.1% TFA; 25 °C).
`B1 (CCL1)` gave an EC50 of 12 nM (CCR8 L168D mutant; IP accumulation, agonist).
For `LAHAAHFR`, “retention coefficient S” read 21.1 (isocratic RP-HPLC, C18 column; peptide, water/acetonitrile, 0.1% TFA; 25 °C).
The AUC(0-29 d) of `pegcetacoplan` is reported as 28000 µg·h/mL (human; repeated dosing, 30 mg/day for 28 days, approximate).

Repeated from above (further values, each from its own experiment):
`LAGSASAHAFR` — result for “retention coefficient S”: 21.3 (isocratic RP-HPLC, C18 column; peptide, water/acetonitrile, 0.1% TFA; 25 °C).
